Experimental data gathered from unrelated publications.
Protocols differ between the studies behind these lines. Values joined by “and” are separate records of one study, mostly repeats; a detail may differ. ± marks the error that the study gave.
UniProt P11712, sequence (whole entry, looked up): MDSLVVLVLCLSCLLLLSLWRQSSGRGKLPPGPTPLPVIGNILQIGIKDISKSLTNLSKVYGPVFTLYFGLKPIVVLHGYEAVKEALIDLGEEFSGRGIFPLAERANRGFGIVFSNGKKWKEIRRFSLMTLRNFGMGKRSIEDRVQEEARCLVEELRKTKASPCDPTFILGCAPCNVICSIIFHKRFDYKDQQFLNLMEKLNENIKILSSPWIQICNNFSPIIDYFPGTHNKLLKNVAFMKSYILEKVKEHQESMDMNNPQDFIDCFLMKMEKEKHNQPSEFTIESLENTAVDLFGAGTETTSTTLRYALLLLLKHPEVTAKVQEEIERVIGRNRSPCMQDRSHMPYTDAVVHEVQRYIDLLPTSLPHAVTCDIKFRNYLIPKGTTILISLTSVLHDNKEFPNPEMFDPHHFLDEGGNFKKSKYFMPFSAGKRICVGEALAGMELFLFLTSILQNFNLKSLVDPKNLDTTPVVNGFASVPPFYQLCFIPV
UniProt P53355, sequence (whole entry, looked up): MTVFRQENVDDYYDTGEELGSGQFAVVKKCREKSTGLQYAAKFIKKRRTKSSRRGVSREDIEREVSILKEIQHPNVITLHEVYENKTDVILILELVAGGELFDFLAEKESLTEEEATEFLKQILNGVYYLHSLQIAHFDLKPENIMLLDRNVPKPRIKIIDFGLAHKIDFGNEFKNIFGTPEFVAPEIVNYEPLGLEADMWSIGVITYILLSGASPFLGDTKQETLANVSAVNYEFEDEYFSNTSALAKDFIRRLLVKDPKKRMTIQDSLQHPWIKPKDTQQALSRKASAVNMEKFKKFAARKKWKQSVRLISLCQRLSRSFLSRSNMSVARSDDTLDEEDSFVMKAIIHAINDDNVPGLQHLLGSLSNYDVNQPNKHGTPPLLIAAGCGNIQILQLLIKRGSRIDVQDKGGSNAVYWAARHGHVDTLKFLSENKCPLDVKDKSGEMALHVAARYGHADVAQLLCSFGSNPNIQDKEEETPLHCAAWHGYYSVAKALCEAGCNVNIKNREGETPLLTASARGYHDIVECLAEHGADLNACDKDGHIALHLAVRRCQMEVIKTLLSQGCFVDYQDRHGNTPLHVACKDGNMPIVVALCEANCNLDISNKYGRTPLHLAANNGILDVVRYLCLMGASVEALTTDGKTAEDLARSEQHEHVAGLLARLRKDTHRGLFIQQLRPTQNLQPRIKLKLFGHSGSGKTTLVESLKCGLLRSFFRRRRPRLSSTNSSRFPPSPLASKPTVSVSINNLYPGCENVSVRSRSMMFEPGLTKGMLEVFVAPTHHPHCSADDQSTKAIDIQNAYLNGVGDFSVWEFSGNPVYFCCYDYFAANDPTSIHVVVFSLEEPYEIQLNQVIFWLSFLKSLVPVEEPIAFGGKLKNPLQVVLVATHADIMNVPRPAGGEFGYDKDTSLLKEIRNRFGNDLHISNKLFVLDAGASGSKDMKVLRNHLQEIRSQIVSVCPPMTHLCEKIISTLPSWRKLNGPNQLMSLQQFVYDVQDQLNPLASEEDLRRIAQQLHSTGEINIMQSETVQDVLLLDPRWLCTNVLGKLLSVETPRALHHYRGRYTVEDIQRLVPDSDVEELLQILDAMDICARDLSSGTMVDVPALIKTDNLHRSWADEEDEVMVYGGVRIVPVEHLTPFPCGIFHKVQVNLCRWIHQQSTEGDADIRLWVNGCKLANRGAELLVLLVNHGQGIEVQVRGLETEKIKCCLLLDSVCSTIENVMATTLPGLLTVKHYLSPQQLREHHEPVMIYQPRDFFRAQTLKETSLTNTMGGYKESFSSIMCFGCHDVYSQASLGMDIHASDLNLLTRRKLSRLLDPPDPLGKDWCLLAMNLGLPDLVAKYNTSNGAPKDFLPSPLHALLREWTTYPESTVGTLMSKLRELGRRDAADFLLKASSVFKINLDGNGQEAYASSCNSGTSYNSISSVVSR

Cc1cc(-c2ccc3ccccc3c2)nnc1NCCN1CCN(C)CC1  half-life (Cytochrome P450 2C9 (CYP2C9, Homo sapiens, UniProt P11712); substrate; recombinant enzyme; 100 nM): > 1 h
CCCCCCCCCCCCCCCC(=O)N[C@@H](CCC(=O)NCCOCCOCCC(=O)NCCOCCOCCC(=O)NCCCC[C@H](NC(=O)[C@H](CC(=O)O)NC(=O)[C@H](CC(C)C)NC(=O)[C@H](Cc1ccc(O)cc1)NC(=O)[C@H](CCCCN)NC(=O)[C@H](CO)NC(=O)[C@H](Cc1ccc(O)cc1)NC(=O)[C@H](CC(=O)O)NC(=O)[C@H](CO)NC(=O)[C@@H](NC(=O)[C@H](Cc1ccccc1)NC(=O)[C@@H](NC(=O)CNC(=O)[C@H](CCC(N)=O)NC(=O)[C@@H](CO)NC(=O)[C@@H](N)Cc1c[nH]cn1)[C@@H](C)O)[C@@H](C)O)C(=O)N[C@@H](CCCNC(=N)N)C(=O)N[C@@H](CCCNC(=N)N)C(=O)N[C@@H](C)C(=O)N[C@@H](CCC(N)=O)C(=O)N[C@@H](CC(=O)O)C(=O)N[C@@H](Cc1ccccc1)C(=O)N[C@H](C(=O)N[C@@H](CCC(N)=O)C(=O)N[C@@H](Cc1c[nH]c2ccccc12)C(=O)N[C@@H](CC(C)C)C(=O)N[C@@H](CC(C)C)C(=O)N[C@@H](CC(N)=O)C(=O)N[C@H](C(=O)NCC(=O)NCC(=O)N1CCC[C@H]1C(=O)N[C@@H](CO)C(=O)N[C@@H](CO)C(=O)NCC(=O)N[C@@H](C)C(=O)N1CCC[C@H]1C(=O)N1CCC[C@H]1C(=O)N1CCC[C@H]1C(=O)N[C@@H](CO)C(N)=O)[C@@H](C)O)C(C)C)C(=O)O  urea (Sprague-Dawley rat, male; subcutaneous, 100 µg/kg once daily, 14 days): 3.74 ± 0.95 mmol/L
O=C(O)c1ccc(-c2nc(-c3ccccc3Cl)c3sccn23)cc1  plasma concentration (mouse, plasma; oral, dose not given, day 3, no 5-FU): 15.3 ng/mL and 11.2 ng/mL
Cc1nc2cccc(OCC(C)(C)C(=O)NC(C)C)c2c(N)c1C(=O)[O-].[Na+]  revertant colonies (Salmonella typhimurium; Ames plate incorporation; TA1537; 0.80 mg/plate, with: with rat liver S9): 15 ± 3 colonies/plate
N=C(N)NCCC[C@@H](NC(=O)[C@H](N)Cc1c[nH]c2ccccc12)C(=O)N[C@H](CCCCN)C(=O)N[C@H](Cc1c[nH]c2ccccc12)C(=O)N[C@H](CCCNC(=N)N)C(=O)N[C@H](CCCCN)C(=O)N[C@H](Cc1c[nH]c2ccccc12)C(=O)N[C@H](CCCNC(=N)N)C(=O)N[C@H](CCCCN)C(=O)N[C@H](Cc1c[nH]c2ccccc12)C(=O)N[C@H](CCCNC(=N)N)C(=O)N[C@H](CCCCN)C(N)=O  Kim-1 level (mouse, serum; 30 mg/kg): 81.6 ng/mL
COc1ccccc1-c1n[nH]c2nc(NC3CCN(C(=O)Cc4ccc(F)cc4F)CC3)ncc12  relative abundance (bead binding, competition bead pull-down, measured: LINJ.32.3110; Leishmania donovani axenic amastigote extract; 10 µM; baseline: vehicle): 1.05
CCc1nn(C)c2nc(-c3ccc(C(=O)O)cc3)nc(NCc3ccccc3)c12  concentration (male CD-1 mouse, plasma; oral, 10 mg/kg, 4 h): 714 ng/mL
CSCC[C@H](NC(=O)CNC(=O)[C@H](CCCCN)NC(=O)[C@H](CC(C)C)NC(=O)[C@@H]1CCCN1C(=O)[C@H](CO)NC(=O)[C@H](Cc1c[nH]cn1)NC(=O)[C@H](Cc1c[nH]c2ccccc12)NC(=O)[C@H](CCCNC(=N)N)NC(=O)[C@H](CC(C)C)NC(=O)[C@H](CCCNC(=N)N)NC(=O)[C@H](Cc1c[nH]c2ccccc12)NC(=O)[C@H](CS)NC(=O)CCCCCNC(=O)CN1CCN(CC(=O)O)CCN(CC(=O)O)CCN(CC(=O)O)CC1)C(=O)O [copper-64 labelled]  tissue uptake (C57BL/6J mice, B16-F10 tumour, blood; intravenous, 1.85 MBq, 18 h): 0.86 %ID/g
CC[C@H](C)[C@H](NC(=O)[C@H](CCCCN)NC(=O)CNC(=O)[C@H](CC(C)C)NC(=O)[C@H](Cc1ccccc1)NC(=O)[C@H](CCCCN)NC(=O)[C@H](CO)NC(=O)[C@H](Cc1ccccc1)NC(=O)[C@H](Cc1c[nH]c2ccccc12)NC(=O)[C@H](CCC(N)=O)NC(=O)[C@@H](NC(=O)[C@H](Cc1ccccc1)NC(=O)CCCCCNC(=O)CN1CCN(CC(=O)O)CCN(CC(=O)O)CCN(CC(=O)O)CC1)C(C)C)C(=O)N[C@@H](CCC(=O)O)C(=O)N1CCC[C@H]1C(=O)N[C@@H](CC(=O)O)C(=O)N[C@H](C(=O)N[C@@H](CO)C(=O)N[C@@H](CCC(N)=O)C(=O)N[C@H](C(=O)N[C@@H](CCC(N)=O)C(=O)N[C@@H](CC(=O)O)C(=O)N1CCC[C@H]1C(=O)N[C@@H](CC(N)=O)C(=O)N[C@@H](CC(=O)O)C(=O)N[C@@H](CCC(N)=O)C(=O)N[C@@H](Cc1ccc(O)cc1)C(=O)N[C@@H](CCC(=O)O)C(=O)N1CCC[C@H]1C(=O)N[C@@H](Cc1ccccc1)C(=O)O)C(C)C)C(C)C [copper-64 labelled]  tissue uptake (C57BL/6 male mouse, tumour-naive, thymus; 4 h): 2.48 ± 0.5 %ID/g
COc1ccc(-n2cc(C(=O)N3C[C@]4(OC(=O)c5ccccc5NC(C)=O)CC[C@H](OC)[C@@]56[C@@H]4C[C@@H]([C@@H]35)[C@@]3(O)C[C@H](OC)[C@H]4C[C@@H]6[C@]3(O)[C@H]4OC)nn2)cc1  plasma concentration (Sprague-Dawley rat, plasma; intravenous, 2 mg/kg, 1 h): 14 ng/mL
O=C1NC2(CC2)COc2ncc(F)cc2[C@H]2COCCN2c2ccn3ncc1c3n2  organ weight (Sprague-Dawley rat, male, spleen; oral, 20 mg/kg/day, 4 weeks): 1.69 ± 0.384 g
O=C1NC(=O)c2c1c1cc(F)c[n+]3c1c1c2c2cc(O)ccc2[n]1[Ru-4]312([N]=C=S)[S+]3CC[S+]1CC[S+]2CC3 (stereo not drawn)  remaining activity (DAPK1 (Homo sapiens, UniProt P53355); enzyme activity; 100 nM, human enzyme, with: 10 µM ATP; baseline: untreated): 2%
CC(C)(C)C(=O)OCOP(=O)(OCOC(=O)C(C)(C)C)C1CCCN(O)C1=O (stereo not drawn)  TGI (SN12C): 14.1 µM
CCCCCCCCCCCCCCCC(=O)N[C@@H](CCC(=O)NCCCC[C@H](NC(=O)[C@H](CC(=O)O)NC(=O)[C@H](CO)NC(=O)[C@@H](NC(=O)[C@H](Cc1ccccc1)NC(=O)[C@@H](NC(=O)CNC(=O)[C@H](CCC(N)=O)NC(=O)[C@H](C)NC(=O)[C@@H](Cc1ccc(O)cc1)NC(C)=O)[C@@H](C)O)[C@@H](C)O)C(=O)N[C@@H](CO)C(=O)N[C@@H](CCCCN)C(=O)N[C@@H](Cc1ccc(O)cc1)C(=O)N[C@@H](CC(C)C)C(=O)N[C@@H](CC(=O)O)C(=O)N[C@@H](CCC(=O)O)C(=O)N[C@@H](CCCNC(=N)N)C(=O)N[C@@H](C)C(=O)N[C@@H](C)C(=O)N[C@@H](CCC(N)=O)C(=O)N[C@@H](CC(=O)O)C(=O)N[C@@H](Cc1ccccc1)C(=O)N[C@H](C(=O)N[C@@H](CCC(N)=O)C(=O)N[C@@H](Cc1c[nH]c2ccccc12)C(=O)N[C@@H](CC(C)C)C(=O)N[C@@H](CC(C)C)C(=O)N[C@@H](CCC(=O)O)C(=O)NCC(=O)NCC(=O)N1CCC[C@H]1C(=O)N[C@@H](CO)C(=O)N[C@@H](CO)C(=O)NCC(=O)N[C@@H](C)C(=O)N1CCC[C@H]1C(=O)N1CCC[C@H]1C(=O)N1CCC[C@H]1C(=O)N[C@@H](CO)C(N)=O)C(C)C)C(=O)O  AUC(0-inf) (male Wistar rat, plasma; intravenous, 0.02 mg/kg): 453 ng·h/mL
O=C(Nc1cccs1)c1cccnc1  plasma clearance time (mouse, plasma; intravenous, 5 mg/kg): ≤ 90 min
CSCC[C@H](N)C(=O)N[C@@H](C)C(=O)N[C@@H](Cc1c[nH]c2ccccc12)C(=O)N[C@@H](Cc1c[nH]cn1)C(=O)N[C@@H](CC(=O)O)C(=O)N[C@@H](CC(=O)O)C(=O)N[C@@H](CCC(=O)O)C(=O)N[C@@H](CCC(=O)O)C(=O)N[C@@H](Cc1ccccc1)C(=O)N[C@@H](C)C(=O)N[C@@H](CCCNC(=N)N)C(=O)N[C@@H](CCCNC(=N)N)C(=O)N[C@@H](CCCNC(=N)N)C(=O)N[C@@H](CCCNC(=N)N)C(=O)NCCCCCC(=O)NCCCCC(NC(=O)CCCCCNC(=O)[C@H](CCCNC(=N)N)NC(=O)[C@H](CCCNC(=N)N)NC(=O)[C@H](CCCNC(=N)N)NC(=O)[C@H](CCCNC(=N)N)NC(=O)[C@H](C)NC(=O)[C@H](Cc1ccccc1)NC(=O)[C@H](CCC(=O)O)NC(=O)[C@H](CCC(=O)O)NC(=O)[C@H](CC(=O)O)NC(=O)[C@H](CC(=O)O)NC(=O)[C@H](Cc1c[nH]cn1)NC(=O)[C@H](Cc1c[nH]c2ccccc12)NC(=O)[C@H](C)NC(=O)[C@@H](N)CCSC)C(=O)NCCCCC(NC(=O)C(CCCCNC(=O)CCCCCNC(=O)[C@H](CCCNC(=N)N)NC(=O)[C@H](CCCNC(=N)N)NC(=O)[C@H](CCCNC(=N)N)NC(=O)[C@H](CCCNC(=N)N)NC(=O)[C@H](C)NC(=O)[C@H](Cc1ccccc1)NC(=O)[C@H](CCC(=O)O)NC(=O)[C@H](CCC(=O)O)NC(=O)[C@H](CC(=O)O)NC(=O)[C@H](CC(=O)O)NC(=O)[C@H](Cc1c[nH]cn1)NC(=O)[C@H](Cc1c[nH]c2ccccc12)NC(=O)[C@H](C)NC(=O)[C@@H](N)CCSC)NC(=O)CCCCCNC(=O)[C@H](CCCNC(=N)N)NC(=O)[C@H](CCCNC(=N)N)NC(=O)[C@H](CCCNC(=N)N)NC(=O)[C@H](CCCNC(=N)N)NC(=O)[C@H](C)NC(=O)[C@H](Cc1ccccc1)NC(=O)[C@H](CCC(=O)O)NC(=O)[C@H](CCC(=O)O)NC(=O)[C@H](CC(=O)O)NC(=O)[C@H](CC(=O)O)NC(=O)[C@H](Cc1c[nH]cn1)NC(=O)[C@H](Cc1c[nH]c2ccccc12)NC(=O)[C@H](C)NC(=O)[C@@H](N)CCSC)C(N)=O (stereo partly drawn)  mean tissue distribution (C57BL/6 mouse female, thymus; dose not given, 3 h; baseline: total): 0.87%
COc1cnc2cccc(N3CCc4c(cc(Cn5ccnc5)cc4-c4cn(C)nc4C(F)(F)F)C3=O)c2c1  body weight (BALB/c nude mice, MV4-11 xenograft; intraperitoneal, 100 mg/kg, day 24): 23.2 g and 22.4 g and 22.6 g and 23 g and 23.1 g
O=C(CN1CCN(CC(=O)NCP(=O)([O-])[O-])CCN(CC(=O)NCP(=O)([O-])[O-])CCN(CC(=O)NCP(=O)([O-])[O-])CC1)NCP(=O)([O-])[O-].[Gd+3]  biodistribution (Sprague-Dawley rat, bone; intravenous, dose not given, 2 h): 32.9 ± 8.45 % injected dose/organ

For quick reference, copied from above:
CCc1nn(C)c2nc(-c3ccc(C(=O)O)cc3)nc(NCc3ccccc3)c12  concentration (male CD-1 mouse, plasma; oral, 10 mg/kg, 4 h): 714 ng/mL
O=C(O)c1ccc(-c2nc(-c3ccccc3Cl)c3sccn23)cc1  plasma concentration (mouse, plasma; oral, dose not given, day 3, no 5-FU): 15.3 ng/mL and 11.2 ng/mL
CCCCCCCCCCCCCCCC(=O)N[C@@H](CCC(=O)NCCOCCOCCC(=O)NCCOCCOCCC(=O)NCCCC[C@H](NC(=O)[C@H](CC(=O)O)NC(=O)[C@H](CC(C)C)NC(=O)[C@H](Cc1ccc(O)cc1)NC(=O)[C@H](CCCCN)NC(=O)[C@H](CO)NC(=O)[C@H](Cc1ccc(O)cc1)NC(=O)[C@H](CC(=O)O)NC(=O)[C@H](CO)NC(=O)[C@@H](NC(=O)[C@H](Cc1ccccc1)NC(=O)[C@@H](NC(=O)CNC(=O)[C@H](CCC(N)=O)NC(=O)[C@@H](CO)NC(=O)[C@@H](N)Cc1c[nH]cn1)[C@@H](C)O)[C@@H](C)O)C(=O)N[C@@H](CCCNC(=N)N)C(=O)N[C@@H](CCCNC(=N)N)C(=O)N[C@@H](C)C(=O)N[C@@H](CCC(N)=O)C(=O)N[C@@H](CC(=O)O)C(=O)N[C@@H](Cc1ccccc1)C(=O)N[C@H](C(=O)N[C@@H](CCC(N)=O)C(=O)N[C@@H](Cc1c[nH]c2ccccc12)C(=O)N[C@@H](CC(C)C)C(=O)N[C@@H](CC(C)C)C(=O)N[C@@H](CC(N)=O)C(=O)N[C@H](C(=O)NCC(=O)NCC(=O)N1CCC[C@H]1C(=O)N[C@@H](CO)C(=O)N[C@@H](CO)C(=O)NCC(=O)N[C@@H](C)C(=O)N1CCC[C@H]1C(=O)N1CCC[C@H]1C(=O)N1CCC[C@H]1C(=O)N[C@@H](CO)C(N)=O)[C@@H](C)O)C(C)C)C(=O)O  urea (Sprague-Dawley rat, male; subcutaneous, 100 µg/kg once daily, 14 days): 3.74 ± 0.95 mmol/L
